{"data": "Measurements gathered from unrelated publications", "note": "A part holds a random share of what one study measured. Substitutions count along the parent as printed."}
{"data": "Sample 1", "target": "RING finger protein unkempt homolog, zinc fingers 1-6, GST-SBP tag (UNK, Homo sapiens, UniProt Q9C0B0, residues 30-357)", "technique": "RNA Bind-n-Seq", "molecule type": "RNA", "sample": "in vitro", "concentration": "not given", "setting": "RNA with constant flanks, human and mouse sites, ends assumed", "baseline": "input RNA pool", "reading": "higher = stronger binding", "constant ends, left off below": "GGGAGUUCUACAGUCCGACGAUC … CAACAGAGGAUUGAGCAUCA", "Construct (chain)": "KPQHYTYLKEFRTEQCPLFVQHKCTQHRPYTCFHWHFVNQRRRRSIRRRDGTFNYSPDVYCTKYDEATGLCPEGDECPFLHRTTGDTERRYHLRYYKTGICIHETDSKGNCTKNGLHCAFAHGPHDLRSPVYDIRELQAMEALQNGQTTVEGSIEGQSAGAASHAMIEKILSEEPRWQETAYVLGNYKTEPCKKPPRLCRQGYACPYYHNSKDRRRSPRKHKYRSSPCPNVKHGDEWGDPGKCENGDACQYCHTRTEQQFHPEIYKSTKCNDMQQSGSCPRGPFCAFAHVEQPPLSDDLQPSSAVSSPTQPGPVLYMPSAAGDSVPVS"}
{"Sequence": "AAUAGUAUGGAUGUAGCAGCAGGUGCAGCAUCUGGUGCAAAAUCAAUGUGGACAGAACAUAAAUCACCUGAUGGAAGGACUUAUUAUUACAAUACUGAAACAAAACAGUCUACCUGGGAA", "bound/input enrichment [ratio]": 0.322}
{"Sequence": "AUGUUCAUCAGUAGAUGCUAUUAUUCAUAAGAACUGUGAUUCCAGCAAACUAGGGUAAUUGGUGCCUUUUUACAGUUUUGAAUAAAAGCAUUUACAAUUUCUAAAUUAUCAGUUUUCACA", "bound/input enrichment [ratio]": 0.449}
{"Sequence": "CUUUAAGUCUCUGAGAGGAGGCUGAAGAGUGUUGGGGCUCCUGGGACAUACAUGUAGAGUUCCUAGCAAAGUGGGCGCCUUUCUCGUCCACAGCAUUUAAAGAGAGGAAGGAGAACCAUC", "bound/input enrichment [ratio]": 0.512}
{"Sequence": "AGCAGUUCUGCUCCACCACUAGAACGACGUAGUUUCAUUGGAAAUUCAGAUAUUCAGUCUUUGGAUAACUACAGUACUGCUUCAUCUCAUUCUGGUGGUCCACCUCAGCCUUCUGCCUUU", "bound/input enrichment [ratio]": 0.0875}
{"Sequence": "GAUAUCCAUUUGAAUGAAAUGGCUGGAGACAUCUUGGUUUUUCUGACUGGCCAGUUUGAAAUAGAAAAAAGUUGUGAGUUACUUUUUCAGAUGGCAGAGUCUGUUGAUUAUGAUUAUGAU", "bound/input enrichment [ratio]": 0.234}
{"Sequence": "CACAUUAUCAAGGUUGGAAUUUAUCUUUUGGAAGCUGGCCUAGCAAAACUAGACUUCUUGAGUGAUGCAAAUUCAAGAAUGAAAAAGUUCAAUCAGCUCAUGAAGAAAGUAAUGGAAAAG", "bound/input enrichment [ratio]": 0.272}
{"Sequence": "UGUGUCCCUGCCAUGAUCAGGUGUCUAUCAGAUGACGUAAAAACCAAGUUGCGUUCCGGUUUAGCCAUAAGCUCCUUGGGCCAGUGUGUUGAAGAACUUACCCUUAACAGUAUUGAUGCU", "bound/input enrichment [ratio]": 0.368}
{"Sequence": "AGAAAAUUGAAGCUGUGUAAAUGAGUAUGGAAGAUUAUGAUUUCCUGUUCAAAAUUGUUUUAAUUGGCAACGCUGGUGUGGGGAAGACGUGCCUCGUCCGAAGAUUCACUCAGGGUCUUU", "bound/input enrichment [ratio]": 0.213}
{"Sequence": "GACAAGUUUGAAAAACUUGUACAGACUGUGAGAGAUUAUCAUGCAACUUGGAAAACUGUUAGUAAUAAAUUAAAAAAUCAUCCUGAUUAUGAAGAAUAUAUCAACUUAGAGGGAACAAGA", "bound/input enrichment [ratio]": 7.8}
{"Sequence": "AAGAUGCCAUUUCACCUUACCCUUCUAAGUGUGUGCUUCUGCAACCUUAAAGCACUAAAUACUGCUAAGAAAGGGCUUAUUGAUUAUUAUUUAAUGCCAUCAUUAUCAACUACUUCACGC", "bound/input enrichment [ratio]": 0.234}
{"Sequence": "CCCCAACCCUUUACUUAUUUGCAUACAUGUUUUCAUAGAACCUUGUAGUCUGAUAUUUAACUCCAUGAAGACUCGUCGGUAUAAAUCUCCUUGUUGUAUGCUCACCACUGGCUUUGAUUU", "bound/input enrichment [ratio]": 1.73}
{"data": "Sample 2", "target": "CCNA2, cyclin fold, Cln2 fusion (human)", "technique": "yeast growth competition, sequencing", "sample": "yeast", "setting": "weak parent motif", "baseline": "not given", "reading": "higher = stronger binding", "starting sequence": "SLBP docking peptide (human); ARYKRKLLINDFG"}
{"Substitution": "ARPKRKLLINDFG [Y3P]", "normalised enrichment score": 0.669}
{"Substitution": "ARYKRKLLINDNG [F12N]", "normalised enrichment score": 0.865}
{"Substitution": "ARYCRKLLINDFG [K4C]", "normalised enrichment score": 0.753}
{"Substitution": "ARYKRKWLINDFG [L7W]", "normalised enrichment score": -0.0755}
{"Substitution": "ARYKRKLLINDGG [F12G]", "normalised enrichment score": 1.32}
{"Substitution": "TRYKRKLLINDFG [A1T]", "normalised enrichment score": 2.01}
{"Substitution": "IRYKRKLLINDFG [A1I]", "normalised enrichment score": 0.896}
{"Substitution": "AAYKRKLLINDFG [R2A]", "normalised enrichment score": 0.573}
{"Substitution": "MRYKRKLLINDFG [A1M]", "normalised enrichment score": 1.77}
{"Substitution": "ARYKRKLLIQDFG [N10Q]", "normalised enrichment score": 1.24}
{"Substitution": "ARYKHKLLINDFG [R5H]", "normalised enrichment score": 1.03}
{"Substitution": "ARYKRKLLINNFG [D11N]", "normalised enrichment score": 0.464}
{"Substitution": "ARYKRKLLANDFG [I9A]", "normalised enrichment score": 0.0221}
{"Substitution": "ARYKRKLLINKFG [D11K]", "normalised enrichment score": 1.4}
{"Substitution": "ARYKRKHLINDFG [L7H]", "normalised enrichment score": 1.43}
{"Substitution": "ARYKRKLLISDFG [N10S]", "normalised enrichment score": 1.13}
{"Substitution": "ARYKRKLTINDFG [L8T]", "normalised enrichment score": 1.08}
{"Substitution": "ARKKRKLLINDFG [Y3K]", "normalised enrichment score": 0.769}
{"data": "Sample 3", "target": "Sal-like protein 4, full length isoform A (SALL4, Homo sapiens, UniProt Q9UJQ4, residues 1-1053)", "technique": "universal PBM", "molecule type": "double-stranded DNA, one strand shown", "sample": "in vitro", "concentration": "600 nM", "setting": "8-mer, flanks averaged, mean of replicates", "reading": "higher = stronger binding", "chain of UniProt Q9UJQ4 (whole entry, looked up)": "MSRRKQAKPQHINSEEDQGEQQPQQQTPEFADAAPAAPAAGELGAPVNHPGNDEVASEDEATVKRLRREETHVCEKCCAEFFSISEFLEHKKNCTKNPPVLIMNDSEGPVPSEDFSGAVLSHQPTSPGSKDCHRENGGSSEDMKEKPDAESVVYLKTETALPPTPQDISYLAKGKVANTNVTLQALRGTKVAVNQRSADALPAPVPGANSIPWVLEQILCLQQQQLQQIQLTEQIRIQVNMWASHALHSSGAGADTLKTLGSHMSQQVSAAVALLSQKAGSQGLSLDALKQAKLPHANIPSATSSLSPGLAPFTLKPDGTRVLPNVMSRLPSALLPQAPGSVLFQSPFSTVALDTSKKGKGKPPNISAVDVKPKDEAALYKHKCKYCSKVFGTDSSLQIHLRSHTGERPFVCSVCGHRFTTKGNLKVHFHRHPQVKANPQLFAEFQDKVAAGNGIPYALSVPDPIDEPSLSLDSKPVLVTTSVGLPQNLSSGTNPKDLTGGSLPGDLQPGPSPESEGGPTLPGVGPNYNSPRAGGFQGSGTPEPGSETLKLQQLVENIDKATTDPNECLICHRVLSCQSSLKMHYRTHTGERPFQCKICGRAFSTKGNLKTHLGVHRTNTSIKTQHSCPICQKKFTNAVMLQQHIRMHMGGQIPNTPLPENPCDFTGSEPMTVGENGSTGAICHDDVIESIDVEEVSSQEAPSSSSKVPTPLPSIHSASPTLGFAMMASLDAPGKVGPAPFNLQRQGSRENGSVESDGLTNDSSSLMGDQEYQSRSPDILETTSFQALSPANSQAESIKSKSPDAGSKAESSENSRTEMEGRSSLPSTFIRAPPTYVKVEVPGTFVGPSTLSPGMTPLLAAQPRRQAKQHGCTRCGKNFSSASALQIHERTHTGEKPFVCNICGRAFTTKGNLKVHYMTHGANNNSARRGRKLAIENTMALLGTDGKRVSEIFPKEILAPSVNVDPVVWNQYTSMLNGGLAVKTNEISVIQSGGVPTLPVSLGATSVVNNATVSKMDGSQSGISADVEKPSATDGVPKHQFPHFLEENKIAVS"}
{"Sequence": "CCTAGCCG", "E-score": -0.159}
{"Sequence": "ACTAGCGG", "E-score": -0.177}
{"Sequence": "CTAGAAAA", "E-score": 0.174}
{"Sequence": "AGGCTCTA", "E-score": -0.154}
{"Sequence": "ATGTGGGA", "E-score": 0.0253}
{"Sequence": "CCCTGCTC", "E-score": -0.197}
{"Sequence": "AACCTCCC", "E-score": -0.112}
{"Sequence": "ATCTTGGG", "E-score": -0.0794}
{"Sequence": "CGCTTATC", "E-score": -0.0344}
{"Sequence": "ATCTTCAT", "E-score": 0.219}
{"Sequence": "CACCCTAC", "E-score": -0.0948}
{"Sequence": "GTGAACGA", "E-score": 0.0595}
{"Sequence": "CAGTCAGG", "E-score": -0.147}
{"Sequence": "ACAGGCTG", "E-score": -0.132}
{"Sequence": "ATAGGGAA", "E-score": -0.0643}
{"Sequence": "CGGGGGAA", "E-score": -0.213}
{"Sequence": "CAAGATTC", "E-score": 0.125}
{"Sequence": "GCTTTCCA", "E-score": -0.0476}
{"Sequence": "AGGCCGAG", "E-score": -0.26}
{"Sequence": "ATTAACTC", "E-score": 0.232}
{"Sequence": "CCAGACCC", "E-score": -0.314}
{"Sequence": "CATTTTGG", "E-score": 0.212}
{"Sequence": "AGCGGGGA", "E-score": -0.0623}
{"data": "Sample 4", "target": "CEBPD, bZIP domain (human)", "technique": "DHFR protein complementation", "sample": "yeast", "setting": "single substitutions, most at no-binding floor", "baseline": "wild-type JUN-FOS pair", "reading": "higher = stronger binding", "starting sequence": "JUN, bZIP domain (human); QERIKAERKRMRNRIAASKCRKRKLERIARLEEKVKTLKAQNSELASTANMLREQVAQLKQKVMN; partner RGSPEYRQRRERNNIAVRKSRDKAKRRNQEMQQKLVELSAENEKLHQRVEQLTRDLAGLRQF"}
{"Substitution": "K39Q", "binding fitness [natural log]": -1.29}
{"Substitution": "I28P", "binding fitness [natural log]": -1.32}
{"Substitution": "R53N", "binding fitness [natural log]": -1.3}
{"Substitution": "L59R", "binding fitness [natural log]": -1.46}
{"Substitution": "S43I", "binding fitness [natural log]": -1.28}
{"Substitution": "K36W", "binding fitness [natural log]": -1.14}
{"Substitution": "A49P", "binding fitness [natural log]": -1.52}
{"Substitution": "E54L", "binding fitness [natural log]": -1.37}
{"Substitution": "K34Q", "binding fitness [natural log]": -1.4}
{"Substitution": "L45R", "binding fitness [natural log]": -1.51}
{"Substitution": "T37P", "binding fitness [natural log]": -1.49}
{"Substitution": "A40P", "binding fitness [natural log]": -1.49}
{"Substitution": "E44M", "binding fitness [natural log]": -1.37}
{"Substitution": "A29I", "binding fitness [natural log]": -1.15}
{"Substitution": "L45C", "binding fitness [natural log]": -1.43}
{"note": "Some of these lines once more (sample 2):"}
{"Substitution": "ARYKRKLTINDFG [L8T]", "normalised enrichment score": 1.08}
{"Substitution": "ARYKRKWLINDFG [L7W]", "normalised enrichment score": -0.0755}
{"Substitution": "ARYKRKLLANDFG [I9A]", "normalised enrichment score": 0.0221}
{"Substitution": "ARYCRKLLINDFG [K4C]", "normalised enrichment score": 0.753}
{"Substitution": "ARYKRKHLINDFG [L7H]", "normalised enrichment score": 1.43}
{"Substitution": "ARYKHKLLINDFG [R5H]", "normalised enrichment score": 1.03}
